Results from different studies.
Protocols differ between the studies behind these lines. Values joined by “and” are separate records of one study, mostly repeats; a detail may differ.
MAPK1: Mitogen-activated protein kinase 1 (MAPK1, Homo sapiens, UniProt P28482)

COc1cc(Nc2nccc(-c3cnn4nc(OC)ccc34)n2)cc(C(F)(F)F)c1
remaining binding (MAPK1; binding, competition with immobilised ligand; 1 µM): 84%

O=C(Cc1ccc(OCc2ccccc2)cc1)NC1(C(=O)O)CCN(C(=O)c2ccc(-c3cccc(Cl)c3)cc2)CC1
activity vs control (MAPK1; enzyme activity, inhibitor; 10 µM): 97%

CN(C)c1ccc(-n2cc(COC(=O)[C@]3(C)C=C(C(=O)OC(C)(C)C)C(=O)CC3)nn2)cc1
relative protein interaction (Mitogen-activated protein kinase 1, with MKK1 (MAPK1, Homo sapiens, UniProt P28482); MKK1-ERK2 interaction, NanoBiT luminescence; HEK293T; concentration not given; relative to: untreated): 0.672

CNC(=O)C[C@H](Cc1ccc(C#N)cc1)NC(=O)c1cc(-c2ccc(CN[C@H](C)c3ccc(C)cc3)o2)ccc1Cl
activity vs control (MAPK1; enzyme activity, inhibitor; 1 µM): 97%

Cc1cccc(-c2ccc3nc(NC(=O)C4CCCO4)nn3c2)c1 (stereo not shown)
remaining activity (MAPK1; enzyme activity, Dundee kinase panel; 10 µM): 93%

C=CC(=O)N1Cc2nc(-c3cc(-c4cc(Cl)cnc4Cl)c(F)cc3F)n(-c3ccncn3)c2C1
inhibition (MAPK1; cell-free assay, inhibitor; 1 µM): 7%

CN1CCN(Cc2ccc(-c3ccc(CO[C@H]4CCC[C@@H]4NC(=O)c4cc(-c5cnn(C)c5)cnc4N)cc3)cc2)CC1
inhibition (MAPK1; enzyme activity, inhibitor; 0.1 µM): -1%

COC(=O)[C@@]1(C)C=C(C(=O)Nc2cccc(C(=O)Nc3ccc(Nc4nccc(-c5cccnc5)n4)c(C)c3)c2)C(=O)CC1
remaining activity (MAPK1; kinase activity, inhibitor; 0.1829 µM, unit not given; relative to: no inhibitor): 0.913

Cc1cccc(O[C@H]2CCC[C@@H](C(C)CNCc3ccncc3)C2)c1 (relative stereo)
inhibition (MAPK1; enzyme activity, inhibitor; 1 µM): -1%

C=CC(=O)N1CCc2ccc(-n3c(=O)ccc4cnc5ccc(-c6cnn(C)c6)cc5c43)cc21
remaining binding (MAPK1; KINOMEscan; 1 µM; relative to: DMSO control): 100%

COc1ccc(O)cc1-c1c[nH]c2ncc(-c3cncc(C(=O)N(C)C)c3)cc12
inhibition (MAPK1; binding, competition with immobilised ligand; 0.2 µM): -17.6%

COc1ccc(NC(=O)Nc2ccc3c(c2)C(=O)N(C(C)CO)CC(C)C(CN(C)Cc2ccc4c(c2)OCO4)O3)cc1 (stereo not shown)
remaining activity (MAPK1; kinase activity, KinaseProfiler; 0.03 µM, species human; relative to: control): 97%

CS(=O)(=O)Nc1cccc(-c2csc3cnc(Nc4ccc(N5CCN(CCCCCOc6cccc7c6C(=O)N(C6CCC(=O)NC6=O)C7=O)CC5)cc4)nc23)c1 (stereo not shown)
inhibition (MAPK1; probe labelling, inhibitor, KiNativ chemoproteomics; MOLT-4; 1 µM): -16.9%

CCN1CCN(Cc2ccc(C(=O)Nc3ccc(C)c(NCc4cnc5[nH]ccc5c4OC)c3)cc2C(F)(F)F)CC1
remaining binding (MAPK1; binding, competition with immobilised ligand; 1 µM): 100%

C#CCOC(=O)[C@@]1(C)C=C(C(=O)OC(C)(C)C)C(=O)CC1
normalized kinase activity (MAPK1; enzyme activity, D-SENSOR; 4.938 µM, single replicate): 1.01 and 1.13 and 0.998

C=CC(=O)Nc1cccc(-c2cnc3[nH]cc(C(=O)NC(C)(C)C)c3n2)c1
inhibition (MAPK1; kinase activity; 0.1 µM): 2%

Nc1nc(Nc2ccccc2)sc1C(=O)c1ccccc1
remaining activity (MAPK1; enzyme activity, inhibitor; 10 µM): 26%

NC(=O)C[C@H]1CCc2sc3ncnc(O[C@H]4CC[C@H](N5CCOCC5)CC4)c3c21
inhibition (MAPK1; enzyme activity, inhibitor; 10 µM): 4%

Cc1cccc(-c2ccc3nc(NC(=O)C4CCOCC4)nn3c2)c1
remaining activity (MAPK1; enzyme activity, Dundee kinase panel; 10 µM): 90%

COCC12C(=O)NC3C4(C(OC)CC1O)C1CC5(O)C(OC)C(O)C(OC(C)=O)(C1C5OC(=O)c1ccccc1)C3(O)C(OC)C24 (stereo not shown)
remaining activity (MAPK1; kinase activity, inhibitor, ProQinase kinase profiling; 25 µM; relative to: control): 90% and 105%

Cc1nc2c(F)cc(-c3nc(Nc4ccc(CNC(=O)CCCCCCC(=O)NO)cc4)ncc3F)cc2n1C(C)C
inhibition (MAPK1; enzyme activity, inhibitor; 1 µM): 37%

O=C=[N][Ru-4]123([n]4c5ccc(O)cc5c5c6c(c7cc(F)c[n+]1c7c54)C(=O)NC6=O)[S+]1CC[S+]2CC[S+]3CC1 (stereo not shown)
remaining activity (MAPK1; enzyme activity; 100 nM, human enzyme, together with: 10 µM ATP; relative to: untreated): 89%

Some of these lines once more:
CNC(=O)C[C@H](Cc1ccc(C#N)cc1)NC(=O)c1cc(-c2ccc(CN[C@H](C)c3ccc(C)cc3)o2)ccc1Cl
activity vs control (MAPK1; enzyme activity, inhibitor; 1 µM): 97%

Cc1nc2c(F)cc(-c3nc(Nc4ccc(CNC(=O)CCCCCCC(=O)NO)cc4)ncc3F)cc2n1C(C)C
inhibition (MAPK1; enzyme activity, inhibitor; 1 µM): 37%
